Measured values gathered from unrelated publications.
Every numbered part comes from another study and shows a few of its results, in no order. Positions count from the first letter of the parent shown.

Sample 1
Target: ABI1, truncated, D143A, DHFR fusion (Arabidopsis thaliana)
Method: DHFR PCA, deep sequencing
Sample: yeast
Notes: methotrexate growth selection, single substitutions
Together with: (+)-ABA 4.8 µM
Baseline: wild-type fitted maximum
Direction: higher = stronger binding
Endpoint: relative binding score
Starting sequence: PYL1, truncated, DHFR fusion (Arabidopsis thaliana); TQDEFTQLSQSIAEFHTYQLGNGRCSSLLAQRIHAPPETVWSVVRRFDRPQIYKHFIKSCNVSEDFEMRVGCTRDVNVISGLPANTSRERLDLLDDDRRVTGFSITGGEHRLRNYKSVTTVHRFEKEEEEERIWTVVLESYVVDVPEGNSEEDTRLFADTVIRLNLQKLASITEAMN; partner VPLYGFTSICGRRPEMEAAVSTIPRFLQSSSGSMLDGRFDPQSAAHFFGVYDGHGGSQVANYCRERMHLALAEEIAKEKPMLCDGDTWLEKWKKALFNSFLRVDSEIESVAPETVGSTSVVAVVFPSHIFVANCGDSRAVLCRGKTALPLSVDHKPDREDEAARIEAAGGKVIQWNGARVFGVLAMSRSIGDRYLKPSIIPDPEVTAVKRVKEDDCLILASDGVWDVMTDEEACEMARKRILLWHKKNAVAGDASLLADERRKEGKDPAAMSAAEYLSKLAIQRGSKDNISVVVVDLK
T17C: 44.6%
V78D: -0.0182%
R69P: 6.47%
R32S: 57.3%
S26T: 76.1%
L29E: -3.13%
D153Q: 16.5%
H122G: 0.523%
L164T: 89.2%
E147F: 60.2%
G107A: 42.5%
V62P: 2%
T86Y: 72.7%

Sample 2
Target: Centromere-binding protein 1, full length, N-terminal tag (CBF1, Saccharomyces cerevisiae, UniProt P17106, residues 1-351)
Sequence of UniProt P17106 (whole entry, looked up): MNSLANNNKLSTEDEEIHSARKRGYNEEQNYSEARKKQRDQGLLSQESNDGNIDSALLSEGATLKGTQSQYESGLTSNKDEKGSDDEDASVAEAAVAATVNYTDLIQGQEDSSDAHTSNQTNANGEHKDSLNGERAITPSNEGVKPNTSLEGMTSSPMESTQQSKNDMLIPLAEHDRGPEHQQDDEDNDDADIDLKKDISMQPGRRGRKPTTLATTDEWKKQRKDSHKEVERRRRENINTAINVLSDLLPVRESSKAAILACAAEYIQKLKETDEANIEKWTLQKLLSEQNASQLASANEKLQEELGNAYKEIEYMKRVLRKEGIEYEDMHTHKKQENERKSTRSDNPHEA
Method: protein-binding microarray
Molecule type: double-stranded DNA, one strand shown
Sample: in vitro
Tested at: 0.8 µM
Notes: whole 60-bp probe, no competitor
Direction: higher = stronger binding
Endpoint: fluorescence intensity
All sequences stand within: … GTCTTGATTCGCTTGACGCTGCTG
GAATTGAGGAAATATCAGGTGTGCCAATACGTTTAG: 599 a.u.
GAAATTTTGTTGTAGCTCGTGGAGTTATCCATTTAG: 542 a.u.
CTATTGTTCGCAACCCACGTCTTGACCGACGGTTTC: 499 a.u.
CTAAAGCGTCTATATCATGTGTATTTTAAGCGATTC: 735 a.u.
CTAGAACGAGCAATCAATGTGATCAATTTGCCATTC: 572 a.u.
CTAGAATGAGGAACAATCGTGATATTATTATGTTTC: 557 a.u.
CTATAAACTCTCGAGGATCTGATGTTGATTTTTTTC: 483 a.u.
GAACCCGAATAAGGTCACGTCGATTTAAATGTTTAG: 1360 a.u.
CCTAACTACTATATTCAGATCACATAGCTTCGTACA: 570 a.u.
TGTACGAAGCTATACGCTCACATTATAGTAGTTAGG: 517 a.u.
GAATTGAATCAGCTTATGGTGATGGCACATTTTTAG: 540 a.u.
CTACGCTGCGTAAAACATCAGAGACGTATGTAATTC: 487 a.u.
CTATTGAGTGTGCGTGATGTTGTGTGTGTGTGTTTC: 680 a.u.
CCTAACTACTATAATCACGTTTAATAGCTTCGTACA: 920 a.u.
CTATCACAAATAGATCACATGATATATTTTTTATTC: 6350 a.u.
GAAAATTCAATTCACGTGAGGACAATAACACTATAG: 7350 a.u.
GAACATGTCACTATGCACGTTGTGGGACAATTATAG: 629 a.u.
CTAAATTTTATGCGTCGGGTGACTTCAATTTGGTTC: 876 a.u.
CTAAACCTATAAACACACGTTTTATACTTTATCTTC: 544 a.u.
CCTAACTACTATAGGATCACCAGATAGCTTCGTACA: 533 a.u.
CTAAGTTGCTTGGAGGAGGTGGTGGAGGCGGAATTC: 516 a.u.
TGTACGAAGCTATGTTCTGATGTTATAGTAGTTAGG: 536 a.u.
GAAGCCCCCCTCACGCACGGGACGGAAGAAGGGTAG: 805 a.u.
CCTAACTACTATAATAGCGTCACATAGCTTCGTACA: 514 a.u.
CCTAACTACTATAATCATGATCTATAGCTTCGTACA: 547 a.u.

Sample 3
Target: Prothrombin, mature alpha-thrombin (F2, Homo sapiens, UniProt P00734)
Method: aptamer microarray, sandwich
Molecule type: DNA with 2'F-ANA
Sample: in vitro
Tested at: 200 nM
Notes: whole 15-mer aptamer, many near background
Together with: Cy3 exosite-II aptamer, 400 nM
Direction: higher = stronger binding
Endpoint: mean fluorescence intensity
Oligonucleotide: GGTTGGTGTGGTTGG
2'F-ANA at 4 5 6 7 10: 44.6 a.u.
2'F-ANA at 1 6 7 10 14: 47.2 a.u.
2'F-ANA at 2 3 4 8 10 12 13: 244 a.u.
2'F-ANA at 1 2 4 6 8 12 13 14 15: 58.1 a.u.
2'F-ANA at 2 3 6 7 8 9 13 15: 572 a.u.
2'F-ANA at 4 5 6 8 11: 71.4 a.u.
2'F-ANA at 2 3 5 6 8 11 12 13 14 15: 116 a.u.
2'F-ANA at 2 3 4 5 6 7 8 9 10 13: 48.2 a.u.
2'F-ANA at 2 6 11 12 14 15: 151 a.u.
2'F-ANA at 1 2 4 5 7 9: 74 a.u.
2'F-ANA at 3 10: 609 a.u.
2'F-ANA at 1 2 3 5 6 7 8 13 14: 145 a.u.
2'F-ANA at 1 5 6 8 9 11 12 14 15: 52.3 a.u.
2'F-ANA at 3 6 9 11 13 14 15: 455 a.u.
2'F-ANA at 2 6 8 9 12 13 14: 139 a.u.
2'F-ANA at 2 7 8 9 11 13: 417 a.u.
2'F-ANA at 2 3 5 8 11 14 15: 54.9 a.u.
2'F-ANA at 1 4 6 9 11 12 14 15: 56.1 a.u.
2'F-ANA at 2 3 4 5 9 13: 61.8 a.u.
2'F-ANA at 1 2 3 4 7 9: 173 a.u.
2'F-ANA at 4 6 7 10: 79.9 a.u.
2'F-ANA at 1 2 3 5 7 9 12 13 14 15: 53.1 a.u.
2'F-ANA at 3 4 7 9: 766 a.u.
2'F-ANA at 1 3 4 6 8 9 10 11: 63.7 a.u.
2'F-ANA at 2 4 6 7 9 13: 155 a.u.

Sample 4
Target: Histone acetyltransferase KAT6A, both winged helices, GST fusion (KAT6A, Homo sapiens, UniProt Q92794, residues 1-181)
Method: protein binding microarray
Molecule type: double-stranded DNA, one strand shown
Sample: in vitro
Tested at: not given
Notes: 8-mer, flanks averaged, mean of 2 arrays, mostly near background
Baseline: not given
Direction: higher = stronger binding
Endpoint: E-score
Target sequence (chain): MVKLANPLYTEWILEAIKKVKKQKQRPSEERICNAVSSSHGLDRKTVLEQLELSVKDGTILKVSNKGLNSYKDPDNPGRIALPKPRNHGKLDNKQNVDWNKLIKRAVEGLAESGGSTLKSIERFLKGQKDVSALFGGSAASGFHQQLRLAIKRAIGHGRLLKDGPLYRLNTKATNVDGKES
AAGGGATT: -0.0729
CATTTTCG: 0.00999
GCCGACGA: 0.167
ATAAGAAC: -0.00442
AAAACGCC: 0.0728
CACTATAA: -0.0414
GGTTATGA: -0.166
GGCGAGGA: -0.0466
ACAGTCCT: -0.166
TGATGCAA: -0.126
AGAGTAAT: 7.5e-05
ATAACAAG: -0.125
TACTCCCA: -0.145
CGATCACC: 0.0721
GCCCCCAC: -0.152
CAGGCGAC: 0.0388
ATAGGTCA: -0.0629
AGACTCCT: -0.137
AAGAAACC: -0.00825
AGCCGATA: 0.00514

Sample 5
Target: RNA binding protein fox-1 homolog 2, RRM domain, GST-SBP tag (RBFOX2, Homo sapiens, UniProt O43251-10, residues 100-194)
Method: RNA Bind-n-Seq
Molecule type: RNA
Sample: in vitro
Tested at: 365 nM
Notes: natural RNA segment, single round, ends assumed
Baseline: no-protein control
Direction: higher = stronger binding
Endpoint: RBNS enrichment (R)
All sequences stand within: GGGAGUUCUACAGUCCGACGAUC … UGGAAUUCUCGGGUGCCAA
Residues (chain): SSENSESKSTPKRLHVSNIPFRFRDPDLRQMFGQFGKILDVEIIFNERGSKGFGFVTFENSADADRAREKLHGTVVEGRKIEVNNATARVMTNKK
CUGGCUGAGUAUGCCAUCCAGAGCAAGCGAUGCCCUCCCAGGUCAGUCUGGGGCACAAGCUGAGCCGCUGACUAGCAAUGCCUACAGCCUUUCCCAAUGCCCUUGCCUGC: 1.01
GAAUACAGCGUCAGAAGGAUGCCAUAACCAUUCUGUUCCUUUACAGAACUAAAUUGCCGCAGACAGGAGUUAAAGUUUUAUAUUUUCCUGCUCAGUUAUCUAAUGUCUUA: 0.359
GUAAUCUUCAAGUAUGUGCUAUUUUUUGUCCCUGUAUCUAAGUCAAAUCAGGAACUUUUUUCUAACAAUUUGCUUUUGAAACUUGAAGUCAAGGAAACAGUGUGGUGCAA: 0.909
UUUCUUGUUUUAACAGCCUUGAGAAAUGUUUGGUUUUGGCCAGCAGAAUUCUUGUCUACUUUUUUCUUUCCCAAAAAGUGUUUUUUAAUUUCUCUACCAAAGAAAAAAUG: 0.96
CAGUUGGCAGAAGAAAGGCAGGGCAGUGUGUAGUGGAUGGGCAGCCUGCUGGCAGCCUGCAUAGGCCUAGGGCCUCCAUUCUGCCGUAUAUUGAAGAUUUAAAGACAGUG: 0.528
CACAUGGGCUCUUUUUCAGGUUUGAUGUAAGCAUAGGCUUGCAUAUUCCCAAGGUACAUACUUUGACUUAAAUGUGGGAUAACUCAGCACUAAUGGGCAGGUAAAGUCAC: 0.654
UUCUAGGAUAGGAUGCAUGUUAGUAAGUUACGUAUGCAAGUCUGAGCGCGCGCGGCUGAUGGACAUCGUCGAGGACCGACAUAGACCCGAUGCCAAGACCUUAGCCCCAA: 1.2
CUGGAACCCUCUGAGCAACUUGCUCUGACCUAUAAUGUCUUAGGUGCAACACGGACCCCACCAGAGCUCUUGGAUACCCCCCUAGAUCCAUGUGGCUUUAUGUGAGGGGA: 0.306
AGGUACCCAUGCUUGAUCUGUCUUCACACCAGACCUCCUCAUAUUAAAAGGAAAAAUAAGAAAAAAAAUGUAAGAAAUCACAUGGCUAUUUAGUUUCAUGCACAGUUGCA: 1.11
GUGGUUCAUUAAUAAUGUUAGCAGCUUUUUUCUAACCAUCCUGUCUAAUGGUUAAGACACCAGUAACAAAAACACAUGAUUUGGAAAUACUUUGGCUUUUUCAUAUACCU: 0.542
AGUUUUAGUACGUAUCUGGCUUGUAUGUGGAAGACUAAAAAGUUGAUUUGCUAAAUGUGGUCUUUGCCAACUAAAAUCUGAGAUGCAGCUUUAGACCCUGACACGUGGAU: 1.75
UUAUUUUGCUUAAGUCAACAGUGCCCUAAAACUCCAAACUCAAAUGCAGUCAAUUAUUCACGCCAUGCACAGCAUAAUUUGCUCCUUUGUGUGGAGUGGUGUGUCAGCCC: 0.386

Sample 6
Cell line: yeast with cyclin A1-Cln2 chimera
Effect on: cell growth
Mode: binder
Method: competitive growth deep sequencing
Molecule type: peptide
Tested at: concentration not given
Notes: peptide tiling library
Direction: direction not given
Endpoint: growth enrichment score
KPHVSDEEEEEPPFYH: 0.666
VEEEFFALRKRTPSAG: 0.92
RDLFDCDFGDLTPLDF: -0.0161
RSLKLDGLLEEN: -0.567
KPKPVKPVTFSTGIKM: -0.715
QYQVVDDIVSKLVFDF: 0.0469
ALLRRLQDVANDRGSH: 0.526
AKRSLGFLPQPVPL: 0.509
IQKKLRFEDTLEFVGF: 0.0385
EPKTLFLGAGDFQF: 0.412
EAAPPTQEAQGETEPT: 0.353
LRRKLFLDGNGSIS: -0.121
GLPDFVFQQQPVESEA: 0.67
ARKRLELGNLGNPQ: -0.746

Some of these lines once more (sample 3):
2'F-ANA at 2 7 8 9 11 13: 417 a.u.
2'F-ANA at 2 3 5 8 11 14 15: 54.9 a.u.
2'F-ANA at 1 4 6 9 11 12 14 15: 56.1 a.u.
2'F-ANA at 2 3 4 5 9 13: 61.8 a.u.
2'F-ANA at 1 2 3 4 7 9: 173 a.u.
2'F-ANA at 4 6 7 10: 79.9 a.u.
2'F-ANA at 1 2 3 5 7 9 12 13 14 15: 53.1 a.u.
2'F-ANA at 3 4 7 9: 766 a.u.
2'F-ANA at 1 3 4 6 8 9 10 11: 63.7 a.u.
2'F-ANA at 2 4 6 7 9 13: 155 a.u.
